Measurements of several laboratories.
Every numbered part comes from another study and shows a few of its results, in no order.

Set 1
Target: Replicase polyprotein 1ab, nsp13 helicase (rep, Severe acute respiratory syndrome coronavirus 2, UniProt P0DTD1)
Mode: inhibitor
Tested at: 20 µM
`c1cnc(N2CCN(Cc3ccc4c(c3)OCO4)CC2)nc1` gave an inhibition of 0.47%.
The inhibition of `CCOC(=O)[C@@H](N)Cc1ccc(-c2cc(O[C@H](c3ccc(Cl)cc3-n3ccc(C)n3)C(F)(F)F)nc(N)n2)cc1` is reported as 4.9%.
The inhibition of `N#Cc1c(-c2ccccc2)cc(-c2cc(Br)ccc2O)[nH]c1=O` is reported as 10.2%.
`CC(=O)[C@H]1CC[C@H]2[C@@H]3C[C@H](C)C4=CC(=O)CC[C@]4(C)[C@H]3[C@@H](O)C[C@]12C` gave an inhibition of 2.27%.
The inhibition of `COc1ccc(C2CC(c3ccccc3)=NN2c2ccc(S(N)(=O)=O)cc2)cc1` (centres unmarked) is reported as 4.06%.
For `CC1=C(/C=C/C(C)=C/C=C/C(C)=C/C=C/C=C(C)/C=C/C=C(C)/C=C/C2=C(C)C(=O)[C@@H](O)CC2(C)C)C(C)(C)C[C@H](O)C1=O`, the inhibition was 5.82%.
The inhibition of `COc1cccc(Nc2ncnn3ccc(CN4CC[C@@H](N)[C@H](O)C4)c23)c1` is reported as 0.21%.
`O=C(NCc1ccccc1)OCCO` has an inhibition of 12.4%.
With `Fc1ccc(-n2cc(CCCCN3CCC4(CC3)OCc3ccccc34)c3ccccc32)cc1` the inhibition was -1.46%.
`N[C@@H](Cn1oc(=O)[nH]c1=O)C(=O)O` has an inhibition of 3.73%.
For `CNC[C@H](O)[C@@H](O)[C@H](O)[C@H](O)CO`, the inhibition was 7.7%.
With `CC/C(=C(\c1ccc(O)cc1)c1ccc(OCCNC)cc1)c1ccccc1` the inhibition was 10.8%.
The inhibition of `O=CN1CCC(C(=O)NCCN2CCC(=C3c4ccccc4C=Cc4ccccc43)CC2)CC1` is reported as 8.81%.
For `CN1CCCN=C1COC(=O)C(O)(c1ccccc1)C1CCCCC1` (centres unmarked), the inhibition was 0.28%.
For `Cn1c(=O)c2c(ncn2CC(=O)Nc2ccc(-c3ccccc3)nn2)n(C)c1=O`, the inhibition was -7.02%.
The inhibition of `CCn1cc(C(=O)O)c(=O)c2ccc(-c3ccncc3)cc21` is reported as 6.5%.
`CCN1CCN(C(=O)N[C@@H](C(=O)N[C@@H]2C(=O)N3C(C(=O)O)=C(CSc4nnnn4C)CS[C@H]23)c2ccc(O)cc2)C(=O)C1=O` has an inhibition of 12.1%.
With `CO[C@H]1C[C@H](O[C@H]2[C@H](C)O[C@@H](O[C@@H]3/C(C)=C/C[C@@H]4C[C@@H](C[C@]5(C=C[C@H](C)[C@@H](C6CCCCC6)O5)O4)OC(=O)[C@@H]4C=C(C)[C@@H](O)[C@H]5OC/C(=C\C=C\[C@@H]3C)[C@]54O)C[C@@H]2OC)O[C@@H](C)[C@@H]1O` the inhibition was 0.49%.
With `O=C(NC[C@H](O)CN1CCc2ccccc2C1)c1cc(NC2COC2)ncn1` the inhibition was 2.46%.
The inhibition of `COc1ccc2cc(-c3nc(-c4ccc([S+](C)[O-])cc4)[nH]c3-c3ccncc3)ccc2c1` (centres unmarked) is reported as 3.64%.
`CC[C@H]1OC(=O)[C@@](C)(F)C(=O)[C@H](C)[C@@H](O[C@@H]2O[C@H](C)C[C@H](N(C)C)[C@H]2O)[C@](C)(OC)C[C@@H](C)C(=O)[C@H](C)[C@H]2N(CCCCn3cc(-c4cccc(N)c4)nn3)C(=O)O[C@]12C` has an inhibition of 11%.
The inhibition of `CC1(C)CCC(C)(C)c2cc(C3(c4ccc(C(=O)O)cc4)OCCO3)ccc21` is reported as 2.1%.
`Cc1o[nH]c(=O)c1C[C@@H](N)C(=O)O` (racemic) gave an inhibition of 7.41%.
For `C=C1CC/C=C(/C)CC[C@@H]2[C@@H]1CC2(C)C`, the inhibition was 10.5%.
With `Cc1ccnc(NC(=O)C(C)c2cccc(C(=O)c3ccccc3)c2)c1` (centres unmarked) the inhibition was 1.28%.

Set 2
Organism: SARS-CoV-2
Observed: cytopathic effect
Cell line: Vero E6
Tested at: 10 µM
The inhibition of `O=C(O)/C(S)=C/c1ccc(I)cc1` is reported as 12.3%.
For `CN1CC[C@@]2(C)c3cc(O)ccc3N(C)[C@@H]12`, the inhibition was -32.4%.
For `Cn1sc(=O)n(Cc2ccccc2)c1=O`, the inhibition was 2.6%.
For `CC[n+]1c(-c2ccccc2)c2cc(N)ccc2c2ccc(N)cc21`, the inhibition was 12.4%.

Set 3
Target: Sal-like protein 4, full length isoform B (SALL4, Homo sapiens, UniProt Q9UJQ4-2, residues 1-616)
Technique: universal PBM
Form: double-stranded DNA, one strand shown
Medium: in vitro
Tested at: not given
Notes: 8-mer, flanks averaged, mean of replicates
Reading: higher = stronger binding
Residues (chain): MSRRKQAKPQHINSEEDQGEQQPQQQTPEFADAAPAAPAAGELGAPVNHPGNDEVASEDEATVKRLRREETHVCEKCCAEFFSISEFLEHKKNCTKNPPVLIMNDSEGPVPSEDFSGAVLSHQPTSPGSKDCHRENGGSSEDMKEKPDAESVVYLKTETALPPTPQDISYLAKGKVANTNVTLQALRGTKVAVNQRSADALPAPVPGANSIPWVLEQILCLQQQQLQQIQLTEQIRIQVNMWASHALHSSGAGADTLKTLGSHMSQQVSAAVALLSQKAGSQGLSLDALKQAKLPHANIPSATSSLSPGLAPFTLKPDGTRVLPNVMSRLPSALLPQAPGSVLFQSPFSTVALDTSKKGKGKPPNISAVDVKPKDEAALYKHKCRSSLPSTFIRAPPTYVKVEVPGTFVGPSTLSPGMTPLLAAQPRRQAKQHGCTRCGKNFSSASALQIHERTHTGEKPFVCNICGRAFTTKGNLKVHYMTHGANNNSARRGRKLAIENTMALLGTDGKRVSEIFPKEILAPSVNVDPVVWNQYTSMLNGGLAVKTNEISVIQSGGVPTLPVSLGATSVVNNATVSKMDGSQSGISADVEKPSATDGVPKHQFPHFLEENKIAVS
For `CGTCAACA`, the E-score was -0.128.
`CTAGCGGC` has an E-score of -0.292.
`GCGCCTCC` gave an E-score of -0.268.
With `GGCTGCCA` the E-score was -0.254.
`AAAACGCG` has an E-score of -0.0896.
For `AGACGAGC`, the E-score was -0.118.
`ACGGATCA` has an E-score of -0.0736.
`CACTAGCG` has an E-score of -0.0777.

Set 4
Target: RNA binding protein fox-1 homolog 2, RRM domain, GST-SBP tag (RBFOX2, Homo sapiens, UniProt O43251-10, residues 100-194)
Technique: RNA Bind-n-Seq
Form: RNA
Medium: in vitro
Tested at: 365 nM
Notes: natural RNA segment, single round, ends assumed
Reference: no-protein control
Reading: higher = stronger binding
All sequences stand within: GGGAGUUCUACAGUCCGACGAUC … UGGAAUUCUCGGGUGCCAA
Construct (chain): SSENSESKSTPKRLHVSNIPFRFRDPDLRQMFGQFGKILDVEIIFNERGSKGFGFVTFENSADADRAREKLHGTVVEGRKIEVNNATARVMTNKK
`CCCUCAAUGAGACUAAGACUUGUGUUGGCUUUUUAAUAUCCUAGUUAGAGAGAAAUUGUAGCACAUUUAAAUUAUUACUCUAAUACUCUUAGACGAUAGAUACCCAUAUU` — result for “RBNS enrichment (R)”: 0.314.
`CUGCGGUGCUGAGCCAGCAGAAAUGAUUUCUUCAGCAGAUGUACCAGCUGUCAUCACUGACGUAUGCACAAAACCAGACCGUUGAUCCCUGGUAUUCCAAGUUGAGUAUG`: “RBNS enrichment (R)” 0.581.
`GGGAGGUGGUUCACACCCCGGAAACAAGUGUCUGGUGGCUGGGCGGGGCCGGCAGGCACAGGGAGGAGGUACAGAAGCCGGCAACGCUUGCUAUUUAUUUUACAAACUGG` — result for “RBNS enrichment (R)”: 0.58.
Under “RBNS enrichment (R)”, `GGUUGGUGUGGCCACCUUUCCCUUUGUCCAAGACUCCACAUGGAAGGCAUUUGAGCUCGACCUCCGAAAAGCUACCCAGCAAAGAGCAGUCUGUGCCUCUGAGCAGACCG` is recorded as 0.311.
`UGAAAGAAAAUGGCUGGAGGUGUGCUUUGUGUGAAAGGUGAGCAAUAAAGUAUCUGUUAAGUUCUCUUUUGGUUUGAGUUUUAUUUUAGCUACUGAAUUAUUCUGGACUC` — result for “RBNS enrichment (R)”: 0.772.
`CAACUGGACGGGCUACUCACAAAAGGUGUUACCCACUUCGUUAUAUAUACUUUCUGUUAUUCCAAAAUGUCAUCAUUAGGGAAGCCACUAAGAGUUUGGAAAUAGGGGCU`: “RBNS enrichment (R)” 0.29.
`AAUACACCACUCCUCUACCUUCUUUAUUUUCUCAGUGUGGAAAAUGCCUGAUGAAAGCUUUGGGGCCCUCACAGAUGCACAACUCAAGUGCUGAUUCUAUCACUUAUCUA`: “RBNS enrichment (R)” 0.412.
`CGUGCUCUCCCUUUUGGUAGGUGUUACUUUAAGAACUGCAGUCAGACUUGCUGUUGCCUGACAAUUAACUCACUGUGAGGAUAGGCACGCACGCUUUUCAUAAUUAACUG`: “RBNS enrichment (R)” 0.535.

Set 5
Cell line: HEK-293T/ACE2
Tested at: concentration not given
Time: 16 (unit not given)
Reference: vehicle
`O=C(CCCCC(=O)Nc1c(I)cc(I)c(C(=O)O)c1I)Nc1c(I)cc(I)c(C(=O)O)c1I` has a viability of 104%.
With `CN1CCC(=C2c3ccccc3CCc3cccnc32)CC1` the viability was 101%.
For `Nc1c(CC(=O)O)cccc1C(=O)c1ccc(Br)cc1`, the viability was 105%.
With `CCCNS(=O)(=O)Nc1ncnc(OCCOc2ncc(Br)cn2)c1-c1ccc(Br)cc1` the viability was 98.9%.
With `Cc1cc(C)cc(OCC2CNC(=O)O2)c1` (centres unmarked) the viability was 103%.
